Assay results gathered from unrelated publications.
Numbered parts are unrelated; each lists some results of a single study.

Sample 1
Target: Fragile X messenger ribonucleoprotein 1, C-terminal low-complexity region (Fmr1, Mus musculus, UniProt P35922)
Technique: RNA Bind-n-Seq
Molecule type: RNA
Medium: in vitro
Tested at: 200 nM
Setting: whole 134-nt RNA, ends assumed
With: 150 mM LiCl
Baseline: input library
Direction: higher = stronger binding
All molecules: 7-deaza-guanosine replaces G
Shared flanks, not repeated: GGGAGUUCUACAGUCCGACGAUC … UGGAAUUCUCGGGUGUCAAGG
Oligonucleotide	log2 enrichment
GCAGUAAGUAAAAACAAAUGGAAAUGCUUCGGAUAGUGGCAGGGGUGGGGGUUGCUAAGGAAAGGGUGGGAUGGGAGUGGGUAAAGAGUU	1.57
UCCUGUGCUACACAUCGUAUGUACCGAAUCGGGGAGGGGAAAAAAAGGGGAAAAAGGGGAAAGUAUUAUGUUACGCCGUUCGGAUCUGCA	0.216
AAGUCCUGUGCUACACAUCGUAUGUACCGAAUCGGGUUUGGGAGGGAAAAAAAGGGAAAGUAUUAUGUUACGCCGUUCGGAUCUGCACUU	-0.317
UAACUUUAGAGGAGGAUCUGAUGGAUAUGGCAGUGGACGUGGAUUUGGGGAUGGCUAUAAUGGGUAUGGAGGAGGACCUGGAGGUGGCAA	-0.584
AGUCCUGUGCUACACAUCGUAUGUACCGAAUCGGGAAAAAGGGAGGGUUUUUUUGGGAAAGUAUUAUGUUACGCCGUUCGGAUCUGCACU	-2.06
CCUCAAGUCCUGUGCUACACAUCGUAUGUACCGAAUCGGUUUUUGGUGGUGGAAAGUAUUAUGUUACGCCGUUCGGAUCUGCACUUCCAG	-0.205
CACAGACAACACGCACCCACACAGACACAGAGGGAAGGGGUUGGGAUGGGGUCAGGGUGCACAGCAGGGCGGGGUAGGACCCCAGCCCCU	-0.261
UCAAGUCCUGUGCUACACAUCGUAUGUACCGAAUCGGUUUGGAGGAAAAAAAGGAAAGUAUUAUGUUACGCCGUUCGGAUCUGCACUUCC	-0.736
ACCAUGCAGGUGGGCAUCUUUGGGAAGUGGGGCAAGGGGGGGAUAGGGAGGGGGAAAACACUUUGGGAACAGGUGGUCCCAGGUCGUUUC	1.18
UGGCCCUGGUGGCAUGCGGGGAGGAAGAGGUGGCCUCAUGGUUCGUGGUGGUCCCGGUGGAAUGUUCAGAGGUGGCCGUGGUGGAGACAG	-0.22
GUCCUGUGCUACACAUCGUAUGUACCGAAUCGGUUUUUUUGGUUUUUGGUUUUUUUGGAAAGUAUUAUGUUACGCCGUUCGGAUCUGCAC	-1.98

Sample 2
Target: Prothrombin, mature alpha-thrombin (F2, Homo sapiens, UniProt P00734)
Technique: aptamer microarray, sandwich
Molecule type: DNA with 2'F-ANA
Medium: in vitro
Tested at: 200 nM
Setting: whole 15-mer aptamer, many near background
With: Cy3 exosite-II aptamer, 400 nM
Direction: higher = stronger binding
Oligonucleotide: GGTTGGTGTGGTTGG
Modification	mean fluorescence intensity
2'F-ANA at 2 5 7 8 9 12	178 a.u.
2'F-ANA at 3 4 6 8 11 12 14 15	261 a.u.
2'F-ANA at 1 3 4 5 6 7 8 9 14 15	49.1 a.u.
2'F-ANA at 2 5 7 8 11 14	56.1 a.u.
2'F-ANA at 2 5 6 7 8 14	48.7 a.u.
2'F-ANA at 2 5 6 7 9	71.4 a.u.
2'F-ANA at 2 8 9	528 a.u.
2'F-ANA at 1 3 6 7 8 9 10 12 13	102 a.u.
2'F-ANA at 1 5 6 9 14 15	48.1 a.u.
2'F-ANA at 1 2 5 8 10 13 15	54.7 a.u.
2'F-ANA at 1 2 3 5 8 9 13	53.6 a.u.
2'F-ANA at 3 5 6 8 11 12 13 14	57.2 a.u.
2'F-ANA at 1 2 3 4 7 12 14 15	80.6 a.u.
2'F-ANA at 1 2 3 7 9 10 11 12 15	79.6 a.u.
2'F-ANA at 1 2 4 7 8 10 11 13 14 15	49.5 a.u.
2'F-ANA at 1 2 3 4 5 8 9 11 12 13 14	50.1 a.u.
2'F-ANA at 1 3 4 5 6 10 13	47.8 a.u.
2'F-ANA at 1 4 5 7 8 9 10 11 13 15	49.2 a.u.
2'F-ANA at 1 2 4 6 7 8 9 11 12 14 15	62.4 a.u.
2'F-ANA at 1 3 6 8 11 12 13 14	109 a.u.
2'F-ANA at 1 7 9 12 13 15	285 a.u.
2'F-ANA at 1 4 5 11 12 13	68.7 a.u.
2'F-ANA at 4 8 9 10 12 13 14	58.1 a.u.

Sample 3
Cell line: yeast with cyclin B3-Cln2 chimera
Observed: cell growth
Mode: binder
Technique: competitive growth deep sequencing
Molecule type: peptide
Tested at: concentration not given
Setting: peptide tiling library
Direction: direction not given
Sequence	growth enrichment score
TTTTSPRTPPPLTVQD	-0.161
VKTKKRLNFDDK	0.167
KSKHEEEEWTDDDLVE	0.47
RQVRRDLFAF	0.382
NSMKELNFSHLPSNSV	0.708
GFGFLLFICKLTF	0.144
SPPRGRRLFPPGPAGF	-0.133
NEGVSNAVRRSLYIRD	0.135
LKGRRLVFDN	0.215
SMTDFYHSKRRLIFSK	-1.55
KRRLDLETDHQY	0.0484
RRRIKLPESDSSED	1.03
KVKRRLDLDIDGLQKE	-0.0282
RVSGLLSWTLSRVLWL	-0.384
PFSENVSAVQKLDFSD	0.28

Sample 4
Target: RING finger protein unkempt homolog, zinc fingers 1-6, GST-SBP tag (UNK, Homo sapiens, UniProt Q9C0B0, residues 30-357)
Chain of UniProt Q9C0B0 (30-357, looked up): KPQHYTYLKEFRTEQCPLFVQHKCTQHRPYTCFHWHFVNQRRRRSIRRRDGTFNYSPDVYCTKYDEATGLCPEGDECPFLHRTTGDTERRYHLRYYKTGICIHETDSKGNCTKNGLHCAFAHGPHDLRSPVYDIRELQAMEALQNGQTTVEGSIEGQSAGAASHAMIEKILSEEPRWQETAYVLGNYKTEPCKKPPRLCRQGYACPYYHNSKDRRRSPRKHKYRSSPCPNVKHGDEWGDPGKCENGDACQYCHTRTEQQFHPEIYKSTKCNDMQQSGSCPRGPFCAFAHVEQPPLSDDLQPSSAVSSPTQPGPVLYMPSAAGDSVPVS
Technique: RNA Bind-n-Seq
Molecule type: RNA
Medium: in vitro
Tested at: not given
Setting: RNA with constant flanks, human and mouse sites, ends assumed
Baseline: input RNA pool
Direction: higher = stronger binding
Shared flanks, not repeated: GGGAGUUCUACAGUCCGACGAUC … CAACAGAGGAUUGAGCAUCA
Oligonucleotide	bound/input enrichment [ratio]
AUACAGCCUGUGCAACUGCGAGUAUUAAAUGUAUGUCGGCACUGGGUAGAGCACCACUUCUAUGAUUUUGAAAGAGAUGCAUAUCUUUUGCAACGAAUGGAAGAAUUUAUUGGAACAGUA	0.125
AGCCAGCCCCUGAGGCUACUAGAAGCUGUGCUUCAGGAGUGCCACAACACCUUCACCGCCUGCUUUCACUCCUUCUACCCAACGCCGGCACUACAGUGGGCAUGCCUCUGUGAUCUGCUC	0.238
AAAAAGAAAACAUUCCAGAUGCAUGAUCCAGCUGUGUGUUUUCAAUCCUUGGGAGGGUGCCAUCCACAUUUUAACAGUACCUGUGCCUGAGAAUUUAAUUUUUAAAAGACUUUGAUGUGU	0.546
ACUCUUGACUCUUUCCAUCCUCUUCCUUUCCCUCUUGAUAUUCAAGGCCAUGAAUCCCAAAAUAACAGUCUUAGUGGCUAGCACCCAAACAGAGGUGGAAUAAAUCCACCCCAGUGUCUC	0.6
CUUGCAUUUCUUUUCCUAAAUCUUAUUUAGGCUAAAUCAGUUUUAUUUUUCUCUGAUUUUUUUUAAUACCACAGAAUCACCUGAGUGUCAAUUGAAAGUUGUCAAUUAAAAGGUAACCUU	0.558
GGUACCAACAAAGACAAGGCUGAAUUCAUUCUGCCUAAUGGUCAAGAAGUAGAUCUCCCGAUUUCCUACUUAACUUCAGUCUCAUCUUUGAUUGUGUGGCAUCCAGCAAACCCUGCGGAG	0.129
CUCUUCCUCCUGCCCCUGGUUCCCUCCUCUCCUCCCACCCCCACAACCAGUACCAAUGUACAUAGUAAUUGUAAUGUUUUAGACUUUACAGAAACUUUCCUGUAUUCUGUAUAUAAAAAA	9.61
ACUUGUUGUGUGUGUGCGUGUGUGUGUGUGUGUGUGUGUGUGUGUGUGUGUUCUGUACCCACUAGGAUUUGUUUAGGUGCCCAUUGCAUCUUUUUGUGCUAUGGAGUUGUUUACAUUAAG	67.2
UGUUACUCUUAUUUAAUAUAAUCUCUAUUGUAUUGAUUUCUUCUGUAUUUACCUUUUGGAUUUUGUAAAACAGAAGUUUAAGACCACAAGUUAGAAGAAAGGUCACAUAUUUCAAACACA	0.587
GACAUGCUGUAUACCGAGACAGAUUUGGAAGAAAGCAUGGACAAAAUUGAAACUAUCAACUUUCAUGAAGUUAAGGAAGUUGCGGGAAUCAAGUUUUGGUGUUACCAUGCAGGUCACGUC	0.174
GUUAGCUGGGGUAAAAAGGUCCAGCCUAUAGACUCCAUAUUAGCAGACUGGAAUGAAGAUAUAGAAGCAUUUGAAAUGAUGGAGAAGGAUGAGCUAUGACUUGCUAAACAAUCUGUUGGU	2.65

A few entries again (sample 3):
Sequence	growth enrichment score
KSKHEEEEWTDDDLVE	0.47
RVSGLLSWTLSRVLWL	-0.384
SMTDFYHSKRRLIFSK	-1.55
SPPRGRRLFPPGPAGF	-0.133
TTTTSPRTPPPLTVQD	-0.161
PFSENVSAVQKLDFSD	0.28
